Measured values of several laboratories.
Protocols differ between the studies behind these lines. ± gives the spread as reported.

SMILES	assay	test system	conditions	how to read	measurement	value
O=[N][Fe]1([N]=O)[S](CCO)[Fe]([N]=O)([N]=O)[S]1CCO		aged C57BL/6JNarl mice on Western diet	po, 2.65 mg/kg daily, 16 weeks		serum uric acid	3.62 ± 0.38 mg/dL
CN1CCC[C@]1(C)/C=C/S(=O)(=O)NC(=O)Nc1c2c(cc3c1CC(O)C3)CCC2 (some centres unmarked)		human, plasma	oral, 50 mg twice daily of parent drug, metabolite of dosed drug	relative to: day 14 over day 1	AUC(0-tau) accumulation ratio	1.8
CC(C)Cn1cc(Cc2cccc(OC(C)(C)C(=O)O)c2)c2ccc(C(=O)N[C@@H](C)c3cc(F)cc(C(C)(C)C)c3)cc21	metabolic stability	mouse, liver microsomes			half-life	> 1 h
CN(CCNCc1ccncc1[O-])CCNCc1ccncc1[O-].[Cl-].[Fe+3]		mouse serum	0.20 mM, 4 h, outcome no effect		relaxivity change	no effect
C=C(NC(=O)c1csc(-c2nc3c(cc2O)-c2nc(cs2)C(=O)NC(C(C)O)C(=O)NC(=C(C)OC)c2nc(cs2)C(=O)NC2c4nc(cs4)C(=O)NC(COC(=O)c4c5c6c(cccc6n4O)COC(=O)C(OC4CC(C)(O)C(N(C)C)C(C)O4)C2OC5)c2nc-3cs2)n1)C(N)=O (centres unmarked)		ICR mice, Streptococcus pneumoniae ATCC 49169 infected, immunocompromised, blood	intravenous, 4 mg/kg/day twice daily		half-life	1.9 h
CCCCN1C(=O)c2cccc3c(NCCN4CCOCC4)ccc(c23)C1=O		dichloromethane			absorption maximum	428 nm
CC(=O)N([O-])CCCCCNC(=O)CCC(=O)N([O-])CCCCCNC(=O)CCC(=O)N([O-])CCCCCN.[89Zr+4]		mouse, spleen	1 h		tracer uptake	0.23 %ID/g
CC[C@H](C)[C@@H]1NC(=O)[C@H](Cc2ccc(O)cc2)NC(=O)CCCSC[C@@H](C(=O)N(CC(=O)N[C@@H](CC(C)C)C(=O)NCC(N)=O)Cc2ccc(F)cc2)NC(=O)[C@H](CC(N)=O)NC(=O)[C@H](CCC(N)=O)NC1=O		healthy human females, plasma	intranasal, 100 µg single dose		Cmax	0.051 ng/mL
COc1ccc2c(c1)CCn1c[n+]3c(c1-2)-c1ccc(OC)cc1CC3		female NSG mice, blood	6 mg/kg, day 14, 5 days per week		MCHC	33.9 ± 1.52 g/dL
CC(C)(O)c1ncc([S@](N)(=O)=NC(=O)Nc2c3c(cc4c2CCC4)CCC3)s1	measured: nervous system disorders	healthy human subjects	oral, 100 mg, fed		share of subjects with TEAEs	17%
CC(C)Cc1ccc(C(C)C(=O)N[C@@H](CCCCNC(=O)CCOCCOCCOCCOCCOCCOCCNC(=O)CN2CCN(CC(=O)[O-])CCN(CC(=O)[O-])CCN(CC(=O)[O-])CC2)C(=O)Nc2cccc3c(C(=O)NCC(=O)N4CC(F)(F)C[C@H]4C#N)ccnc23)cc1.[177Lu+3] (some centres unmarked)		mouse, U-87 MG tumour xenograft, lung	4 h		tissue uptake	19.7 ± 2.35 %ID/g
C/C(N)=N/C(=N\S(=O)(=O)c1ccc(C(F)(F)F)cc1)N1C[C@H](c2ccccc2)C(c2ccc(Cl)cc2)=N1		C57BL/6 mouse, liver	intravenous, 10 mg/kg		half-life	2.9 h
CN1CCC[C@]1(C)/C=C/S(=O)(=O)NC(=O)Nc1c2c(cc3c1C(O)CC3)CCC2 (some centres unmarked)		human, plasma	oral, 12.5 mg twice daily of parent drug, metabolite of dosed drug	relative to: day 14 over day 1	AUC(0-tau) accumulation ratio	2.4
CCN(CC)c1ccc2cc(C(=O)ON3C(=O)CCC3=O)c(=O)oc2c1	chemical stability, HPLC-MS	borate buffered saline	pH 10.2, no N-acetyl-lysine		degradation rate constant	8.4 h⁻¹
Cc1ncc2c(n1)CN(C(=O)Nc1nc(-c3cccs3)ccc1N)C2		mouse, brain homogenate			fraction unbound	0.297
COc1cccc(OC)c1-c1cc(C(=O)NC2(C(=O)O)C3CC4CC(C3)CC2C4)nn1-c1ccc(C(=O)N(C)CCCN(C)CCCN(C)C(=O)[C@H](CCCCNC(=O)[C@H](CC(C)C)NC(=O)C2OC2C(=O)O)NC(=O)CN2CCN(CC(=O)[O-])CCN(CC(=O)[O-])CCN(CC(=O)[O-])CC2)cc1C(C)C.[177Lu+3] (mixture of isomers)		mouse, HT-29 xenograft	24 h post injection, biodistribution	relative to: tumour over liver uptake	tumour-to-liver ratio	4.95
CSCC[C@H](N)C(=O)N[C@@H](CO)C(=O)N[C@H](C(=O)N[C@@H](C)C(=O)NCC(=O)N[C@@H](CC(C)C)C(=O)N[C@@H](CCCCN)C(=O)N[C@@H](CCCCN)C(=O)N[C@@H](CCC(N)=O)C(=O)N[C@@H](Cc1c[nH]c2ccccc12)C(=O)N[C@@H](Cc1ccc(O)cc1)C(=O)N[C@@H](CCCCN)C(=O)N[C@@H](C)C(=O)N[C@@H](CO)C(=O)N[C@@H](CCC(N)=O)C(=O)N[C@@H](CC(C)C)C(=O)N[C@H](C(=O)N[C@@H](CO)C(=O)N[C@@H](CCC(=O)O)C(=O)N[C@@H](CCCCN)C(=O)N[C@H](C(=O)NCC(=O)NCC(=O)N[C@@H](C)C(N)=O)C(C)C)C(C)C)C(C)C	circular dichroism	aqueous TFE	50 µM, pH 7.4, 20 °C		TFE midpoint	2.73 ± 0.05 M
Cc1ccc(OCC(=O)N(Cc2cccs2)c2ccn[nH]2)cc1		pooled human liver microsomes	10 µM, 60 min, without NADPH	relative to: time 0	remaining compound	94.2%
O=C(Nc1cnccc1-c1ccc([18F])cc1)c1ccnc(NC(=O)C2CC2)c1	PET imaging	FVB/NJ mice, both sexes, brain	intravenous, 120 min post-injection, P-gp inhibited, added: tariquidar 15 mg/kg iv, 2 h before		median SUV	0.22
CC(C)C[C@H](NC(=O)[C@H](CCCNC(=N)N)NC(=O)[C@H](Cc1ccccc1)NC(=O)[C@H](Cc1ccccc1)NC(=O)[C@@H](NC(=O)[C@H](CO)NC(=O)[C@H](CO)NC(=O)[C@H](CC(=O)O)NC(=O)[C@H](CO)NC(=O)[C@H](CO)NC(=O)[C@H](CC(=O)O)NC(=O)[C@H](CO)NC(=O)[C@H](CO)NC(=O)[C@H](CC(=O)O)NC(=O)[C@H](CO)NC(=O)[C@H](CO)NC(=O)[C@H](CC(=O)O)NC(=O)[C@H](CO)NC(=O)[C@H](CO)NC(=O)[C@H](CC(=O)O)NC(=O)[C@H](CO)NC(=O)[C@H](CO)NC(=O)[C@H](CC(=O)O)NC(=O)[C@H](CO)NC(=O)[C@H](CO)NC(=O)[C@H](CC(=O)O)NC(=O)[C@H](CO)NC(=O)[C@H](CO)NC(=O)[C@@H](N)CC(=O)O)[C@@H](C)O)C(=O)N[C@@H](Cc1ccccc1)C(=O)N[C@@H](CC(N)=O)C(=O)N[C@@H](CCCNC(=N)N)C(=O)N[C@@H](C)C(=O)N[C@@H](CCCCN)C(=O)N[C@@H](CCCNC(=N)N)C(=O)N[C@@H](Cc1c[nH]cn1)C(=O)N[C@@H](Cc1c[nH]cn1)C(=O)NCC(=O)N[C@@H](Cc1ccc(O)cc1)C(=O)N[C@@H](CCCCN)C(=O)N[C@@H](CCCNC(=N)N)C(=O)N[C@@H](CCCCN)C(=O)N[C@@H](Cc1ccccc1)C(=O)N[C@@H](Cc1c[nH]cn1)C(=O)O	HPLC-UV	human saliva	4 h, 37 °C, added: initial 1 mg/mL		peptide concentration	0.899 mg/mL
CCC[C@H]1CC[C@H](c2ccc(NC(=S)NC[C@@H]3[C@@H](O)[C@@H](O)[C@H]4[C@H](O)CCCN43)cc2)CC1		NOD-SCID mouse, serum	ip, 30 mg/kg		CRE	0.33 ± 0.05 mg/dL
O=C(Nc1cnccc1-c1ccc([18F])nc1)c1ccnc(NC(=O)C2CC2)c1	PET imaging	FVB/NJ mice, both sexes, brain	intravenous, 60 min post-injection, P-gp inhibited, added: tariquidar 15 mg/kg iv, 2 h before		median SUV	0.142
CCCCN1C(=O)c2cccc3c(NCCCCCCCCCCN4CCOCC4)ccc(c23)C1=O		DMF			absorption maximum	444 nm
CCCC[C@H](NC(=O)COCCOCCNC(=O)CN1CCN(CC(=O)O)CCN(CC(=O)O)CC1)C(=O)N[C@H]1CC(=O)NCCCC[C@@H](C(N)=O)NC(=O)[C@H](Cc2c[nH]c3ccccc23)NC(=O)[C@H](CCCNC(=N)N)NC(=O)[C@@H](Cc2ccccc2)NC(=O)[C@H](Cc2c[nH]cn2)NC1=O [fluorine-18 labelled]		C57 mice, B16/F10 melanoma, urine	intravenous, 0.37 MBq, 2 h		urinary excretion	83.4 ± 2.37%
CCCCN1C(=O)c2cccc3c(NCCCCCCN4CCOCC4)ccc(c23)C1=O		chloroform			absorption maximum	429 nm
Cc1noc(C)c1Cn1cc(N2C(=O)CN(Cc3cccc(O[C@@H]4O[C@H](C(=O)O)[C@@H](O)[C@H](O)[C@H]4O)c3)C2=O)cn1		Sprague-Dawley rat, male	oral, 10 mg/kg of parent drug, 0.25 h		plasma concentration	2110 ng/mL

Repeated from above:
SMILES	assay	test system	conditions	how to read	measurement	value
C/C(N)=N/C(=N\S(=O)(=O)c1ccc(C(F)(F)F)cc1)N1C[C@H](c2ccccc2)C(c2ccc(Cl)cc2)=N1		C57BL/6 mouse, liver	intravenous, 10 mg/kg		half-life	2.9 h
O=C(Nc1cnccc1-c1ccc([18F])nc1)c1ccnc(NC(=O)C2CC2)c1	PET imaging	FVB/NJ mice, both sexes, brain	intravenous, 60 min post-injection, P-gp inhibited, added: tariquidar 15 mg/kg iv, 2 h before		median SUV	0.142
CCCC[C@H](NC(=O)COCCOCCNC(=O)CN1CCN(CC(=O)O)CCN(CC(=O)O)CC1)C(=O)N[C@H]1CC(=O)NCCCC[C@@H](C(N)=O)NC(=O)[C@H](Cc2c[nH]c3ccccc23)NC(=O)[C@H](CCCNC(=N)N)NC(=O)[C@@H](Cc2ccccc2)NC(=O)[C@H](Cc2c[nH]cn2)NC1=O [fluorine-18 labelled]		C57 mice, B16/F10 melanoma, urine	intravenous, 0.37 MBq, 2 h		urinary excretion	83.4 ± 2.37%
